Measured values pooled from the literature.
Parts stem from different laboratories: compare values within a part only.

Sample 1
Target: Sal-like protein 4, full length isoform A (SALL4, Homo sapiens, UniProt Q9UJQ4, residues 1-1053)
Chain of UniProt Q9UJQ4 (whole entry, looked up): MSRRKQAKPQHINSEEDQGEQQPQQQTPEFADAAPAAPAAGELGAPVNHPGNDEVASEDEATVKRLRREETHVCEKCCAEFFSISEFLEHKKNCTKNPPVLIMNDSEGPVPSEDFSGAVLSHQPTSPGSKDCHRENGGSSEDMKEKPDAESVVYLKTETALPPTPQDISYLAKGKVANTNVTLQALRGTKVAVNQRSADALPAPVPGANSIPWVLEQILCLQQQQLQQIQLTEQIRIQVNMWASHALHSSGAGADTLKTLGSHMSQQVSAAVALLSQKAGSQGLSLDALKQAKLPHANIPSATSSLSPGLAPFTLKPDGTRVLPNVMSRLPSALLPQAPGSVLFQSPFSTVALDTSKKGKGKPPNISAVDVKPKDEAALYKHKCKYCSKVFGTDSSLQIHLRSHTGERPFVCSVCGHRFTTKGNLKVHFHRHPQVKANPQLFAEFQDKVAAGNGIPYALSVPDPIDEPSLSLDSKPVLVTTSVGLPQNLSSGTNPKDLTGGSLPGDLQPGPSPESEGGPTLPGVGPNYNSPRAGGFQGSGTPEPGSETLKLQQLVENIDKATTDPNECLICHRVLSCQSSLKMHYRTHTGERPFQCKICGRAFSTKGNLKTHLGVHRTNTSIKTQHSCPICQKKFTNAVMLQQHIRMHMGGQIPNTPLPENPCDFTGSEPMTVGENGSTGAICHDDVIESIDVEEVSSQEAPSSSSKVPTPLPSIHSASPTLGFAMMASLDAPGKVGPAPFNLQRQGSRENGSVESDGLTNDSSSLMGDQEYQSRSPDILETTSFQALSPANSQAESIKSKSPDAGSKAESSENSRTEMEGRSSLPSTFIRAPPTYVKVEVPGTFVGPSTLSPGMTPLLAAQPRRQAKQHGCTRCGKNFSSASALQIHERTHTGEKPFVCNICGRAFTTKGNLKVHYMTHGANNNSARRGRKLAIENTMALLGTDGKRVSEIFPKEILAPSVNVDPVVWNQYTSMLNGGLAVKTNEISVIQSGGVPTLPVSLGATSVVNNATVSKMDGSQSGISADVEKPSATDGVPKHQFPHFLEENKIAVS
Method: universal PBM
Molecule type: double-stranded DNA, one strand shown
Medium: in vitro
Concentration: 600 nM
Setting: 8-mer, flanks averaged, mean of replicates
Direction: higher = stronger binding
Quantity: E-score
GTAAGCAC: -0.054
GGGCAGCA: -0.347
ATAGCCAG: -0.0783
GAGTTTGA: 0.0262
AGCCAAAG: -0.0179
CTTAAGCC: -0.0691
ACTCGCTA: -0.171
AAGGCACC: -0.224
TACGGGCA: -0.132
ACTCGTAC: -0.0294
ATCGTTCA: 0.179
AATCTCTC: 0.0899
TCTTCTCA: 0.118
CGGCACCG: -0.358
ACGCTGAA: -0.0752
CGGTACCA: -0.154
AAATTAAT: 0.43
AAGAACCA: 0.0895
GAATAGTA: 0.278
ATTCTCCA: 0.182
CGCGCGCC: -0.261
GCAAGCCA: -0.222
GGGCGACC: -0.386
CTAATTTA: 0.309
ATCAATTA: 0.351

Sample 2
Target: RING finger protein unkempt homolog, zinc fingers 1-6, GST-SBP tag (UNK, Homo sapiens, UniProt Q9C0B0, residues 30-357)
Method: RNA Bind-n-Seq
Molecule type: RNA
Medium: in vitro
Concentration: not given
Setting: RNA with constant flanks, human and mouse sites, ends assumed
Relative to: input RNA pool
Direction: higher = stronger binding
Quantity: bound/input enrichment
Constant ends, left off below: GGGAGUUCUACAGUCCGACGAUC … CAACAGAGGAUUGAGCAUCA
Construct (chain): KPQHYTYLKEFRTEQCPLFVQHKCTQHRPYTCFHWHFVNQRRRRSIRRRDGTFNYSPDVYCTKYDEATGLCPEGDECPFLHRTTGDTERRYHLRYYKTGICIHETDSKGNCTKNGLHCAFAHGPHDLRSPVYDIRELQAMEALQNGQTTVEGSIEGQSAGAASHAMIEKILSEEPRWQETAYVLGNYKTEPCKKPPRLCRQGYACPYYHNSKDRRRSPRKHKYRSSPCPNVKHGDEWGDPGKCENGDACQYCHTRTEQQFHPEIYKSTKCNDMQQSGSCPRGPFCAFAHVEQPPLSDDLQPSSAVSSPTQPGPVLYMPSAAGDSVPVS
GAACUGUUGAGCUCCUAUGAUGUAGAUGUUAAUCAGAUCAUAAAUACCAUAUCCGAAUGGAUAGUUUUGAUUAAGACCAGAGGCGUUAGGCGACCUGAAUUUCAGACUUUACUAACGGAA: 0.0997 ratio
GGGAAGCAGUUUGACUCUCCCAUGCCAAGCCCCUUCCAUGGUGGAAGUUUCACUCUUCCCUUAGACACUAUGAAGAAUGAGAGAGUCUCAGAAGGACCACGACCCUUUGCCCCUGUCUUC: 0.655 ratio
ACAAGAGAAGGAUCAUUCCGUGUCACAACAGCCACUGAACAAGCAGAAAGAGAGGAGAUCAUGAAACAAAUGCAAGAUGCCAAGAAAGCUGAAACAGAUAAGAUAGUCGUUGGUUCAUCA: 0.239 ratio
GACCAUCUAUACAUACACCAUCUUCAAAGAGACCAUCAAGACCCUAUCUCUGAGGAGACGGCAAGCAUCUUUCCUCCACGAUGCAUGCAAUUUUGGGGAAAUAUAUGUGUGGCUCUCCUA: 0.243 ratio
CCAAGCCCUAAGGCUGAGCCUAUCCAGGAGCCUCCCACCUGUGUCCCCAAGCUCUGCAUUGGGGACUUGGACUUCUCAGACCUAGGGGAGGAUGAAGACCAGGACACACUGAAUGUGGAA: 0.339 ratio
CCGGGCUCAGGGCUCGUUCUGGUCUGCCUAGUCCUGGGAGCUGUGCGGUCUUAUGCAUUGGAACUUAAUUUGACAGAUUCAGAAAAUGCCACUUGCCUUUAUGCAAAAUGGCAGAUGAAU: 0.134 ratio
UUUAGUGACUAUGGUAAGCUUUUGUUGAUUUGUUUCAGACUUUUUUCUCCUGUAAAAAAAUAGUACUGAUUAACUUUUUUAAAAGAAAGAUUUUACUGUAAAUAUGGAUUUUUUUUUUUG: 4.34 ratio
GUUGGAAGUCUGGUUAGAGUCCCCAGAGAGUUACUCUAAGUUAAAAUGAGCCACUGACCUUGGCUCACCUUAGAGGAAUUUCCUCGAGAACAACAGAGAUAAGAAAAGAACCGGCCUGGC: 0.301 ratio
GUGGUGAACCGACCUCCAACUCCUCCCCCACCGUACAGUGCCUUCCAGCUCCAACAGCAGCAGCAGCUGCUGCCACCUCCUCCUCAGGGUGGCCCUCCAGGUGGCAGCCCCCCAGGCGCU: 0.759 ratio
GACCAAGAUGGAAAUGAAGAGCUAAAGGACUUGGAAGAAUUUGGUGAAAAUGAAGAGGAAAUUGUGCAUUCCCAGGAGUUGCUUUCUACAGAAGAGAACAAGACAACUCAGGAAUUUGUA: 0.268 ratio
AAUACCCAAACUCCCAUCUAUGGGACUGAGCACAAUAGUGAAAACACAGACUUUGGUGACUCUGGAAGGCUUUACUAUUGUAAACACUGUGACUUUAACAACAAAUCUGCCCGGAGUGUU: 0.387 ratio

Sample 3
Target: RNA binding protein fox-1 homolog 2, RRM domain, GST-SBP tag (RBFOX2, Homo sapiens, UniProt O43251-10, residues 100-194)
Method: RNA Bind-n-Seq
Molecule type: RNA
Medium: in vitro
Concentration: 365 nM
Setting: natural RNA segment, single round, ends assumed
Relative to: no-protein control
Direction: higher = stronger binding
Quantity: RBNS enrichment (R)
Constant ends, left off below: GGGAGUUCUACAGUCCGACGAUC … UGGAAUUCUCGGGUGCCAA
Construct (chain): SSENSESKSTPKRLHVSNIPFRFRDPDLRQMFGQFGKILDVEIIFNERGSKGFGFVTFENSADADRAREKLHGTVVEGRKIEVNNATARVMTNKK
CCCUGUCUUUCAUUGAGCCUUAGCAUUUCCCUCUCAGGCUUCCUCUCAAGCUCAAGGAACUCACCCCCAGAUAAGAAGCUGGUGCCUCUUGUCUCUCUCAUUUCAGAAAC: 0.407
UAAUUUUUAUUUAAACCCUUGCACUUCUCAGUGCCUGGCAGCUGCAAGGGUCCCAGCUGCCCCGAGGCAGUCUGUGGCCCUGGUUGAAGGAAGCACAAACUAGAUGUCUG: 0.288
UGUGAUUAGAGAACCUUGGACAUUUUGCUGCUAAAGAAUCUUUUUUCCCCUCUCCCCCUUCCUGACCCUACUUGCACUGCUGUGGAUUUUUUUAAGAGAAGCAAAAACAA: 1
UCCUGGAUUGACUCUUAAUCAUCAGGCAUCAUUCCUGGUUUGCUUCUCUACGAAUCUCAAUUCCAACUUCUCUGCAGAGUCUGUACAGUGAUUAAGCCAUGCCAGAUGGU: 0.64
UGGCCCUCAGAUCCUUAGUAUUGUGUGAUUUUCCCCCGUUAACAUGUCUUUCUAAAAUUGUCUAUUAAAGCAGAGGAAAUACCUGCCAAAGGAAGUAUGUAUUGCAUUAA: 0.711
GGUUAAUGAAGAACACUUCUCAACAGUUUCCUUUUUGUUUUCCUUUAUAAUUCACUAAAAUAAAGCAUCUAUUAGUGUCUGAUUUAGGAAUGUAAAAUGAUUCUGUAUUA: 4.1
CUUUUAAAUCUGUAUGUAAAAUCUUUUCAAAAUACAUUUUUAAGCUAAUACUCUUAACAUAGAUUAUGAAGUUAAGUGAAAUUUAUGGCUCUAACAGCAAAAUAAUUAAA: 7.43
CAGCUGUGGUGGCUAAAGGGAAUAUGUUAAUUAAGCAAGAGGUUCUUUUCUAAAAGUGGUAUCUGUUAUCCACAAUGUAUUUUAGUUAUUCCCACAAGUCAGGGGUCCAG: 0.85
AAAGUCCUUUGUAUUGGCACAUGAUAAAUCUUGAUGACGGGCUAUAUUCUGAACAAACGCUUGCACUGACCAAAGCUUGUGUUUAGCGUGUGUUUAGCAUAGGUGCUGUA: 0.388
UCAAGCCUGCUUAAGCUACUUAUAGUUCAGGGUCCGCUUAACAAUUUAUAAGACUGUGUCUUGUUCACCAGUGAGAGAGGGCUGAGGUCAUUACUCACCUGGCACAGACG: 0.276
UUGUGCACAGGAAGAGCACCAGCCGCUGAGUCAGGAUCCUGUCAGUUCCAUGAGCUAUUCCUCUUUGGUUUGGCUUUUUGAUAUGAUUAAAAUUAUUUUUUAUUCCUUUU: 0.664
UCAUUUACUGUUUUAGGUCUAGCCUAUGUGGAUUUUUUCCUAACAUACCUAAGCAAACCCAGUGUCAGGAUGGUAAUUCUUAUUCUUUCGUUCAGUUAAGUUUUUCCCUU: 0.373

Sample 4
Target: Transcriptional repressor CTCF (CTCF, Homo sapiens, UniProt P49711, residues 1-727, full length assumed)
Chain of UniProt P49711 (whole entry, looked up): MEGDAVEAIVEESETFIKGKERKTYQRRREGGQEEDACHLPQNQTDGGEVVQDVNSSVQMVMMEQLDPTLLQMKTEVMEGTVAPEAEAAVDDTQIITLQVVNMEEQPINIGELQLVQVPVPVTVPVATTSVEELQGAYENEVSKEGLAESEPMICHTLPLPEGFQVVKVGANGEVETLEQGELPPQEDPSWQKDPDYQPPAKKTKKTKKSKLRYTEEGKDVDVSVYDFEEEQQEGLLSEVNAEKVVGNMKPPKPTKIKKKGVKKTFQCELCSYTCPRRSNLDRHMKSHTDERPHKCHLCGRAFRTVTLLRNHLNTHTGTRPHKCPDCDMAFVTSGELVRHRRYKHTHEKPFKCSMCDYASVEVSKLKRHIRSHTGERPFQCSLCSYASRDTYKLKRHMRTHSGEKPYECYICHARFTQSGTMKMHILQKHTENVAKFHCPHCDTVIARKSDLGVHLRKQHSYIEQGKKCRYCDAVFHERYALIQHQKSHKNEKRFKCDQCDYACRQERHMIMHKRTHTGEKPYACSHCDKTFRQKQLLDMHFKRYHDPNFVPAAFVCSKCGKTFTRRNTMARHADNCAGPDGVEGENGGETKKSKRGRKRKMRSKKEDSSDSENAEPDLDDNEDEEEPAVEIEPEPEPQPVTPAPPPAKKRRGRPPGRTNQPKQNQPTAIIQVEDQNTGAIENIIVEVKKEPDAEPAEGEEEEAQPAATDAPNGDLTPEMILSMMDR
Method: protein-binding microarray
Molecule type: double-stranded DNA, one strand shown
Medium: in vitro
Concentration: not given
Setting: k-mer, scored over probes, only values ≥0.25
Direction: higher = stronger binding
Quantity: E-score
CCCTGGCG: 0.28
ATATATAG: 0.335
ATATAACG: 0.339
ACCGCGCA: 0.282
ATACGTTC: 0.254
AGAACAAA: 0.288
CGCATATA: 0.268
AATAACAA: 0.324
AATATACA: 0.362
TCATAACA: 0.305
CCGATAGG: 0.286
AATATAGC: 0.275
AGAGAAAT: 0.251
AATAGTAT: 0.342
TATCTACA: 0.27
AATTAACA: 0.304
AAATCTAC: 0.26

Sample 5
Target: Histone acetyltransferase KAT6A, winged helix 1, GST fusion (KAT6A, Homo sapiens, UniProt Q92794, residues 1-85)
Method: protein binding microarray
Molecule type: double-stranded DNA, one strand shown
Medium: in vitro
Concentration: not given
Setting: 8-mer, flanks averaged, mean of 2 arrays, mostly near background
Relative to: not given
Direction: higher = stronger binding
Quantity: E-score
Residues (chain): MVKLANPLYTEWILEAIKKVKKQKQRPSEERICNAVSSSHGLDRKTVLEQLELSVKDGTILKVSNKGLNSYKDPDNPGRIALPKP
GGAGCTTA: -0.0886
CGAACGAG: 0.011
AGAGGCTC: -0.162
CGCAGAGA: 0.0512
CATTATGA: -0.12
AAAAGCGT: 0.0537
AACTCCCT: -0.108
AATCCCTA: -0.0203
ACGATCCA: -0.222
CCCCTGAC: 0.046
ACCCAGAG: -0.28
CTAGTATC: -0.136
AAGTTACT: -0.129
TAGAGGAA: -0.24
GGACCGCA: 0.0876
AGCAAAAC: -0.034
